Results from different studies.
Values joined by “and” are separate records of one study, mostly repeats; a detail may differ. ± gives the spread as reported.
uncharacterized protein: uncharacterized protein (Anopheles coluzzii, UniProt A0A6E8VQK1)
Ahr: Aryl hydrocarbon receptor (Ahr, Rattus norvegicus, UniProt P41738)
Chain of UniProt P41738 (whole entry, looked up): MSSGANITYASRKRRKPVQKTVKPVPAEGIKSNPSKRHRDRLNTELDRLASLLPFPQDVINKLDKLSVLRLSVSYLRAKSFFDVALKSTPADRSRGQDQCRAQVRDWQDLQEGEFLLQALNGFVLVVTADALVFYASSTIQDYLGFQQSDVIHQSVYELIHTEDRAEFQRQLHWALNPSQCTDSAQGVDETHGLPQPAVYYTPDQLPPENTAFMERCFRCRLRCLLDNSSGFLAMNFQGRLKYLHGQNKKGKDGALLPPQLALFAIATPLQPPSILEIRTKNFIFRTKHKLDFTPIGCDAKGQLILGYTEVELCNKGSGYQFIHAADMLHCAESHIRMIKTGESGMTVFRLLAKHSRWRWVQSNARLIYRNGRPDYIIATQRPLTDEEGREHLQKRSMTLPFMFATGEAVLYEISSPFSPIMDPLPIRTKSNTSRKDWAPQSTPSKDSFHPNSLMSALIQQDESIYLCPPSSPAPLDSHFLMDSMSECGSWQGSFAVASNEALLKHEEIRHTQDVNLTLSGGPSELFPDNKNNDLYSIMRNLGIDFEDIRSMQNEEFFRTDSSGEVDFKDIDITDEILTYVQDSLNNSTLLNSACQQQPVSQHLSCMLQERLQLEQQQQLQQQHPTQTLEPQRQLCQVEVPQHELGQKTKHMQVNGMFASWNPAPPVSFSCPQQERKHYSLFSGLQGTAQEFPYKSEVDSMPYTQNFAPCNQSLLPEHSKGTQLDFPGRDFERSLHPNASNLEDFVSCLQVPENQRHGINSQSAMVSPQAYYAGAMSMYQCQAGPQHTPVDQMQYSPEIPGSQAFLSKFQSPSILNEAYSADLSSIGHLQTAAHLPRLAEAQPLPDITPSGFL
CCKAR: Cholecystokinin receptor type A (CCKAR, Homo sapiens, UniProt P32238)
Chain of UniProt P32238 (whole entry, looked up): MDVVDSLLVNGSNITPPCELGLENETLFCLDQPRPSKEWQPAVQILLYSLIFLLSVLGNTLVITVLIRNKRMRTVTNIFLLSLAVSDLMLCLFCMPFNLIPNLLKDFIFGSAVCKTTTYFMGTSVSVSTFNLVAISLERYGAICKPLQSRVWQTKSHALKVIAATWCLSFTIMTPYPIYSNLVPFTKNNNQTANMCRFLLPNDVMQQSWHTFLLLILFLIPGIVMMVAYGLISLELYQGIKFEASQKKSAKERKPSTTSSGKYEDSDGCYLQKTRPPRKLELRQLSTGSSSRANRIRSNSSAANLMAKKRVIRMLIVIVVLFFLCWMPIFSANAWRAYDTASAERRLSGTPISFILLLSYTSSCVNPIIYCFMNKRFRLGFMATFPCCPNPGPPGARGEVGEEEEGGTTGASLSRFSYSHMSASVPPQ
Chain of UniProt Q14994 (whole entry, looked up): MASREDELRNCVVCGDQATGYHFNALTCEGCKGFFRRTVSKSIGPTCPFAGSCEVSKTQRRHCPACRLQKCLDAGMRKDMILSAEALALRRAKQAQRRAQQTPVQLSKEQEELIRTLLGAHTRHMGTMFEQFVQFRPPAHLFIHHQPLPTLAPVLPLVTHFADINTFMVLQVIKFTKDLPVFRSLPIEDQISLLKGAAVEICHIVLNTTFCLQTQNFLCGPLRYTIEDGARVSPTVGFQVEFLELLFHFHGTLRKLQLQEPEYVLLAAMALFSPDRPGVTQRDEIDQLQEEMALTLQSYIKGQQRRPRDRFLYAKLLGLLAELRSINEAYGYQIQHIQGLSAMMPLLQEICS
Chain of UniProt P15090 (whole entry, looked up): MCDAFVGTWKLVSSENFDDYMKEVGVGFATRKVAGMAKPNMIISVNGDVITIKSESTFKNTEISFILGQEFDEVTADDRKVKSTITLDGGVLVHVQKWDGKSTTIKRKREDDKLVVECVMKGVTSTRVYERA
Chain of UniProt Q8TDS4 (whole entry, looked up): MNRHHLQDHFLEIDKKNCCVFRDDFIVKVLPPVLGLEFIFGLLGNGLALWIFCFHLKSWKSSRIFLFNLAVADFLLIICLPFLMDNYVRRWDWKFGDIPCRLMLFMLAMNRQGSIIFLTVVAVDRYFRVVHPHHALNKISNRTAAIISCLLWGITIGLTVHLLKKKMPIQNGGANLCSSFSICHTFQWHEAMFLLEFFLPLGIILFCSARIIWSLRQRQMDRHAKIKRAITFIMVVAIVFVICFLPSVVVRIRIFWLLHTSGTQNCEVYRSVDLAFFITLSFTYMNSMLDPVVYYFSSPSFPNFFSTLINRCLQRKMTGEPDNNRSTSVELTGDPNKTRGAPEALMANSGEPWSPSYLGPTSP
Chain of UniProt P62136 (whole entry, unmodified, looked up): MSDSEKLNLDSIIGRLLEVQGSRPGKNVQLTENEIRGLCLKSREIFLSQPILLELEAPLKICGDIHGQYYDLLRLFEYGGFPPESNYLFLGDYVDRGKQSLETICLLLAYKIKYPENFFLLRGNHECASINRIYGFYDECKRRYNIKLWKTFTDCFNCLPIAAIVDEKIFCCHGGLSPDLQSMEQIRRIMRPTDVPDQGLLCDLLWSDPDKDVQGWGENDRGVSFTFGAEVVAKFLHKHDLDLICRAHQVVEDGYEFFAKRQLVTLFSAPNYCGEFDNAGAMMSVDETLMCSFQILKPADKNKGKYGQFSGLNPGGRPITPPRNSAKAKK
Chain of UniProt P00942 (whole entry, unmodified, looked up): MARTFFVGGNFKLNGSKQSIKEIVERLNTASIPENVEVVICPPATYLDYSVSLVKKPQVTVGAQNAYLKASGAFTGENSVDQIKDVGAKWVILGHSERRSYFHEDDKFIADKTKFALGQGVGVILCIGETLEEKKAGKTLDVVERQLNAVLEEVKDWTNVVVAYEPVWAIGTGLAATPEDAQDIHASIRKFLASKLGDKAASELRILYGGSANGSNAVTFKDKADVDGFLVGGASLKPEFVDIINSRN
Chain of UniProt P19099 (whole entry, unmodified, looked up): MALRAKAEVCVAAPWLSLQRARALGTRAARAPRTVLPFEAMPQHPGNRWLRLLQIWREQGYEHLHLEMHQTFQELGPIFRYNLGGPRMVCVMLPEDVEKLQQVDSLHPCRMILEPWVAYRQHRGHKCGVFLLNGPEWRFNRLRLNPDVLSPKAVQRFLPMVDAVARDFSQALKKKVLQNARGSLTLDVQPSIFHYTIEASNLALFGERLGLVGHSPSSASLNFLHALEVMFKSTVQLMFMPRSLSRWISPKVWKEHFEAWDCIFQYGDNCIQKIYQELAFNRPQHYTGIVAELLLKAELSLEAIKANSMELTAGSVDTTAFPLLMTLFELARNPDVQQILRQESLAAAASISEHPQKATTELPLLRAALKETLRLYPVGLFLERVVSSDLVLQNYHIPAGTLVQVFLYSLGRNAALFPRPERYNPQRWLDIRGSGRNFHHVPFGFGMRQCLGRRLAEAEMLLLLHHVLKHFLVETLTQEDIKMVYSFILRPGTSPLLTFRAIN
Chain of UniProt O15530 (whole entry, looked up): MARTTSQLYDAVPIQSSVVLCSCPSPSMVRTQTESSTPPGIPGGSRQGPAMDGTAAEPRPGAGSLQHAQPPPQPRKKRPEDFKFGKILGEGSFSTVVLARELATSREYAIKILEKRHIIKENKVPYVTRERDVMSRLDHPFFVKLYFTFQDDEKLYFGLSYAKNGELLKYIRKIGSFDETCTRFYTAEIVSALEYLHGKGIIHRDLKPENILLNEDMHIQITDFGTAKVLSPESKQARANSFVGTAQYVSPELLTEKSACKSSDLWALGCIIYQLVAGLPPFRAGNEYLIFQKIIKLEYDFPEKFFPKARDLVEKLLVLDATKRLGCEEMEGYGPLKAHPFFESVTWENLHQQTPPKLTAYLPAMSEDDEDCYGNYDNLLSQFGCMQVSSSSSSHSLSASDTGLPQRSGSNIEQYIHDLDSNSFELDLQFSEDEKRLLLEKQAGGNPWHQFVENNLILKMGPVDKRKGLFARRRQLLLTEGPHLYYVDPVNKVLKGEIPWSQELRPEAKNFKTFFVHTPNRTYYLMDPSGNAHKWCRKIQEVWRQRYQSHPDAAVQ
Chain of UniProt Q9BZL6 (whole entry, looked up): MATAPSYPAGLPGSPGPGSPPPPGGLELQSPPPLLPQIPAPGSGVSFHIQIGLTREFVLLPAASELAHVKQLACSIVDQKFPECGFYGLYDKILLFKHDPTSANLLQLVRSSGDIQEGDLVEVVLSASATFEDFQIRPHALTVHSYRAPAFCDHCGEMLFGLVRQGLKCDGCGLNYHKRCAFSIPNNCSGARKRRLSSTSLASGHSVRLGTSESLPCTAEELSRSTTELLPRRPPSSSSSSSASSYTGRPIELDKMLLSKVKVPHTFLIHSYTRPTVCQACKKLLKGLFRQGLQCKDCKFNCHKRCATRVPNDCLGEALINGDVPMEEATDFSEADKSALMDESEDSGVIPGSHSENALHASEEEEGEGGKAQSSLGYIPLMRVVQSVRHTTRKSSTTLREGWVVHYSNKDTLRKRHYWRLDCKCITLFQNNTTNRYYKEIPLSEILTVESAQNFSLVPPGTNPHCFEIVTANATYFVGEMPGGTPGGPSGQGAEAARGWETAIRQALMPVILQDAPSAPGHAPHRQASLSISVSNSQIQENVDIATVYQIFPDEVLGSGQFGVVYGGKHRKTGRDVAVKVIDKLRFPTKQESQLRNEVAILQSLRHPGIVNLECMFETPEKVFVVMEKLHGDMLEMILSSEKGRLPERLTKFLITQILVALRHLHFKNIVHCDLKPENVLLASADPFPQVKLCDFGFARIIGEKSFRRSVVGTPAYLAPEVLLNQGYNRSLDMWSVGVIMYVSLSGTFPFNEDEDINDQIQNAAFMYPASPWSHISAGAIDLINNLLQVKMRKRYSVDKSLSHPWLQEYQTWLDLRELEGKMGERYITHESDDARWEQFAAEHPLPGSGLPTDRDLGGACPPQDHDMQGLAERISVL

SMILES	target	test	system	conditions	how to read	quantity	result
O=C1c2ccccc2C(=O)C1c1ccccc1	Nuclear receptor subfamily 1 group I member 3 (Homo sapiens, UniProt Q14994)		cells	concentration not given		activity	inactive
C[C@H]1CN(c2n[nH]c3nc(N[C@H]4CC[C@H](NS(=O)(=O)CCC(F)(F)F)CC4)ncc23)CCO1	Sodium/potassium-transporting ATPase subunit alpha-1 (ATP1A1, Homo sapiens, UniProt P05023)	inhibitor, Kinobeads competition profiling		0.16 µM	reference: vehicle	relative abundance	1.14
O=C(O)COP(=O)(O)O	TPI1 (Saccharomyces cerevisiae, UniProt P00942, S211G)	enzyme activity, competitive inhibitor, GPDH/NADH-coupled		pH 5.7, 25 °C, ionic strength 0.1 NaCl, together with: glyceraldehyde 3-phosphate substrate	reference: mutant over wild type	Ki ratio	3.2
CNC(=O)Oc1cccc2c1OC(C)(C)O2	uncharacterized protein	enzyme activity, inhibitor	Sf9 cell homogenate	18.6 µM, 0.1667 h, together with: α-naphthyl acetate substrate	reference: no inhibitor	remaining activity	19.2%
c1ccc2c(c1)cc1ccc3cccc4ccc2c1c34	Ahr	agonist, CALUX reporter	H4IIE	0.0038 µg/mL		agonist response	61.7%
COc1ccc(N2C(=O)N(c3c(C)cccc3Cl)Cc3cnc(Nc4ccc(C5CCN(C)CC5)cc4OC)nc32)nc1	Serine/threonine-protein kinase D1 (PRKD1, Homo sapiens, UniProt Q15139)	kinase activity		0.5 µM		inhibition	27%
OB(O)CSc1nc2ccccc2n1Cc1ccc(C(F)(F)F)cc1C(F)(F)F	Regulatory protein BlaR1, sensor domain (blaR1, Staphylococcus aureus, UniProt P18357)					kon	5800 ± 1.2e+06 M⁻¹ s⁻¹
C/C=C(/C)C(=O)O[C@H]1C(C)=C2[C@H]([C@@H]1OC(=O)CCCCCCC)[C@@](C)(OC(C)=O)C[C@H](OC(=O)CCC)[C@@]1(O)[C@H]2OC(=O)[C@@]1(C)O	Protein transport protein Sec61 subunit alpha isoform 1 (Homo sapiens, UniProt P61619)	reporter gene, inhibitor, dual luciferase	HEK293 with SP-CD4-FLuc reporter	concentration not given		FLuc/RLuc ratio	6.75 and 5.01 and 4.17 and 6.11
[2H]c1c([2H])c([C@]2([2H])CCCN2C(=O)C(C)(C)Oc2ccc3cn[nH]c3c2)c([2H])c([2H])c1C([2H])([2H])[2H]	Serine/threonine-protein kinase WNK1 (WNK1, Homo sapiens, UniProt Q9H4A3)	KINOMEscan		1 µM	reference: DMSO control	remaining binding	100%
CNC(=O)Oc1cccc2c1OC(C)(C)O2	Fatty acid-binding protein, adipocyte (FABP4, Homo sapiens, UniProt P15090)	binding, affinity selection mass spectrometry		100 nM, pooled screen	reference: other proteins	fold change	13.1
Nc1ncc(-c2nc(N3CCOCC3)nc(N3CCOCC3)n2)c(C(F)F)n1	Phosphatidylinositol 4,5-bisphosphate 3-kinase catalytic subunit alpha isoform (PIK3CA, Homo sapiens, UniProt P42336, C420R)	KINOMEscan		10 µM		remaining binding	0%
C[C@@H](O)[C@H](NC(=O)c1ccc(-c2ccc(Br)cc2)cc1)C(=O)NO	UDP-3-O-acyl-N-acetylglucosamine deacetylase (Pseudomonas aeruginosa, UniProt P47205, C40S)	ITC		concentration not given, 298 K		-TΔS of binding	-4.92 kcal/mol
CC(C)C[C@H](NC(=O)[C@@H]1CCCN1C(=O)[C@H](CCCNC(=N)N)NC(=O)[C@H](CC(C)C)NC(=O)[C@H](CCCNC(=N)N)NC(=O)[C@H](CC(=O)O)NC(=O)[C@H](Cc1ccc(O)cc1)NC(=O)[C@H](CC(=O)O)NC(=O)[C@H](CCC(=O)O)NC(=O)[C@H](CCC(N)=O)NC(=O)CN)C(=O)O	Epithelial sodium channel subunit gamma (Homo sapiens, UniProt P51170)	binding, bio-layer interferometry				kon	692000 M⁻¹ s⁻¹
CCCCCCCCCCCCCC[N+](C)(C)C	Sodium channel protein type 4 alpha, BTX-activated (Oryctolagus cuniculus, UniProt G1SLL9)			concentration not given		time to steady-state effect	≤ 1 min
O=C(Nc1cnccc1Cl)N1CCN(Cc2ccc3c(c2)OC(F)(F)O3)CC1	CCKAR	binding		50 µM, together with: [3H]L-364,718		inhibition	-13%
O=C(c1ccc(Cl)cc1)N1CCN2C(=O)N(OC(=O)N3CCOc4ccccc43)C(=O)C2C1 (centres unmarked)	Complement C1r subcomponent-like protein (C1RL, Homo sapiens, UniProt Q9NZP8)	MS-based ABPP	SW-620 conditioned medium	10 µM, 1 h, 37 °C	reference: compound over DMSO, lower = more inhibition	median protein ratio	1.05

SMILES	target	test	system	conditions	how to read	quantity	result
CN1CCN(c2cc(-c3ccncc3)c(-c3ccc4ccccc4c3)nn2)CC1	Hydroxycarboxylic acid receptor 2 (HCAR2, Homo sapiens, UniProt Q8TDS4)	agonist, FLIPR		12.5 µM		activation	15.4%
CC(CCn1ccc(-c2ccc(-c3cn(Cc4ccncn4)nn3)cc2)cc1=O)(C(=O)NO)S(C)(=O)=O (centres unmarked)	UDP-3-O-acyl-N-acetylglucosamine deacetylase (Pseudomonas aeruginosa, UniProt P47205)	fluorescence		37 °C		residence time	103 ± 20.2 min
Nc1nc2c(ncn2[C@@H]2O[C@@H]3COP(=O)(O)O[C@H]4[C@@H](O)[C@H](n5cnc6c(=O)[nH]c(N)nc65)O[C@@H]4COP(=O)(O)O[C@H]3[C@H]2O)c(=O)[nH]1	Cell cycle histidine kinase CckA, cytoplasmic region (Caulobacter vibrioides, UniProt Q9X688)	isothermal titration calorimetry	Caulobacter crescentus	concentration not given, 12 °C, together with: ADP 5 mM		binding enthalpy (ΔH)	4.9 kcal/mol
CN(C(=O)n1cnc(-c2ccc[n+]([O-])c2)c1)C1CCCCC1	CCKAR	radioligand binding		10 µM, together with: [3H]L-364,718		inhibition	4%
COc1cc(N)c(Cl)cc1C(=O)NC1CN2CCC1CC2 (centres unmarked)	Probable G-protein coupled receptor 162 (GPR162, Homo sapiens, UniProt Q16538)	β-arrestin recruitment, TANGO luminescence, item: GPR162		concentration not given	reference: basal luminescence	log2 fold change	-0.16
O=C(Nc1cccnn1)N1CCC(=Cc2cccc(Oc3ccc(C(F)(F)F)cn3)c2)CC1	Serine/threonine-protein kinase D2 (PRKD2, Homo sapiens, UniProt Q9BZL6)	kinase activity, inhibitor		10 µM, human, together with: MAPKAPK substrate		inhibition	2%
COc1cc(Nc2ncc(F)c(Nc3ccc4c(n3)NC(=O)C(C)(C)O4)n2)cc(OC)c1OC	3-phosphoinositide-dependent protein kinase 1 (PDPK1, Homo sapiens, UniProt O15530)	KINOMEscan		10 µM		inhibition	78%
CC(C)(COP(=O)(O)OP(=O)(O)OC[C@H]1O[C@@H](n2cnc3c(N)ncnc32)[C@H](O)[C@@H]1OP(=O)(O)O)[C@@H](O)C(=O)NCCC(=O)NCCS	matB (Rhodopseudomonas palustris, UniProt Q6ND88, C106A/K488A/Q457C/R286C)	binding, intrinsic fluorescence		0.25 mM, 1 µM matB, 10 mM MgCl2		fluorescence ratio F+/F-	0.96
CC1(C)[C@H](C(=O)O[C@H](C#N)c2cccc(Oc3ccccc3)c2)[C@@H]1C=C(Br)Br	uncharacterized protein	enzyme activity, inhibitor	Sf9 cell homogenate	0.2294 µM, 0.1667 h, together with: α-naphthyl acetate substrate	reference: no inhibitor	remaining activity	98.6%
CC[C@H](C)[C@H](NC(=O)CNC(=O)[C@@H](N)CCCCN)C(=O)N[C@@H](CC(C)C)C(=O)N[C@@H](CCCCN)C(=O)N[C@@H](CC(N)=O)C(=O)N[C@@H](CCCNC(=N)N)C(=O)N[C@@H](C)C(=O)N[C@@H](CCCNC(=N)N)C(=O)N[C@@H](CCCNC(=N)N)C(=O)N[C@@H](CCC(=O)O)C(=O)N[C@@H](CCCNC(=N)N)C(=O)N1CCC[C@H]1C(=O)NCC(=O)N[C@@H](CCCCN)C(=O)N[C@@H](CCCNC(=N)N)C(=O)N[C@@H](CCCCN)C(=O)N[C@@H](CC(N)=O)C(=O)N[C@H](C(=O)N[C@@H](Cc1c[nH]cn1)C(=O)N[C@@H](Cc1c[nH]c2ccccc12)C(=O)N1CCC[C@H]1C(=O)N[C@@H](CCC(=O)O)C(=O)N[C@@H](CCC(=O)O)C(=O)NCC(=O)N[C@@H](CCCCN)C(=O)N[C@@H](CC(C)C)C(=O)N[C@@H](CCCNC(=N)N)C(=O)N[C@@H](CCC(=O)O)C(=O)N[C@@H](Cc1ccc(O)cc1)C(=O)N[C@@H](Cc1ccccc1)C(=O)N[C@@H](Cc1ccc(O)cc1)C(=O)N[C@@H](Cc1ccccc1)C(=O)N[C@@H](CCC(=O)O)C(=O)N[C@@H](CC(C)C)C(=O)N[C@@H](CC(=O)O)C(=O)N[C@@H](CCC(=O)O)C(=O)N[C@@H](C)C(=O)N[C@@H](CCC(=O)O)C(=O)N[C@@H](CCCNC(=N)N)C(=O)N[C@H](C(=O)N[C@@H](CC(N)=O)C(=O)N[C@H](C(=O)O)C(C)C)C(C)C)C(C)C	Serine/threonine-protein phosphatase PP1-alpha catalytic subunit (PPP1CA, Homo sapiens, UniProt P62136)	binding, isothermal titration calorimetry		concentration not given, 25 °C, PP1α residues 7-330		enthalpy change ΔH	-35.3 ± 0.1 kcal/mol
O=C(Cc1cccs1)N[C@@H]1C(=O)N2C(C(=O)O)=C(/C=C/c3ccc([N+](=O)[O-])cc3[N+](=O)[O-])CS[C@H]12	Metallo-beta-lactamase type 2 (blaNDM-1, Klebsiella pneumoniae, UniProt C7C422, C208H)	substrate, steady-state kinetics				kcat	≤ 0.1 s⁻¹
c1cc2ccc3cccc4ccc(c1)c2c34	Ahr	reporter gene, activator			reference: baseline cytotoxicity over effect concentration	specificity ratio	2.11
c1ccc2c(c1)cc1ccc3cccc4ccc2c1c34	Ahr	reporter gene, agonist	H4IIE-luc rat hepatoma cells	0.2 to 50 nM		EC80	3.7 log fmol/well
O=C1C(Cl)=C(Cl)C(=O)C(Cl)=C1Cl	DNA cross-link repair 1A protein (DCLRE1A, Homo sapiens, UniProt Q6PJP8)	exonuclease activity, inhibitor, fluorescence HTS		10 µM, 80 min, together with: 8 nM 5P-FQ substrate		remaining activity	29.5%
O=P(O)(O)OC[C@H]1C[C@@](O)(CO)[C@@H](O)[C@H](O)[C@@H]1O	valA (Streptomyces hygroscopicus, UniProt H2K887)	phosphate release		150 µM		apparent Vmax	2.7 ± 0.3 µM/min
C[C@]12CC[C@H]3[C@@H](CCC4=CC(=O)CC[C@@]43C)[C@@H]1CC[C@@H]2C(=O)CO	Cytochrome P450 11B2, mitochondrial (CYP11B2, Homo sapiens, UniProt P19099, A320V)	substrate		100 µM, 37 °C, phospholipid vesicles		11β-hydroxylation product formation rate	38.6 ± 5.6 min⁻¹

Excerpt of the above:
SMILES	target	test	system	conditions	how to read	quantity	result
CC(CCn1ccc(-c2ccc(-c3cn(Cc4ccncn4)nn3)cc2)cc1=O)(C(=O)NO)S(C)(=O)=O (centres unmarked)	UDP-3-O-acyl-N-acetylglucosamine deacetylase (Pseudomonas aeruginosa, UniProt P47205)	fluorescence		37 °C		residence time	103 ± 20.2 min
Nc1nc2c(ncn2[C@@H]2O[C@@H]3COP(=O)(O)O[C@H]4[C@@H](O)[C@H](n5cnc6c(=O)[nH]c(N)nc65)O[C@@H]4COP(=O)(O)O[C@H]3[C@H]2O)c(=O)[nH]1	Cell cycle histidine kinase CckA, cytoplasmic region (Caulobacter vibrioides, UniProt Q9X688)	isothermal titration calorimetry	Caulobacter crescentus	concentration not given, 12 °C, together with: ADP 5 mM		binding enthalpy (ΔH)	4.9 kcal/mol
CN(C(=O)n1cnc(-c2ccc[n+]([O-])c2)c1)C1CCCCC1	CCKAR	radioligand binding		10 µM, together with: [3H]L-364,718		inhibition	4%
